# Published values pooled from the literature.
# Parts stem from different laboratories: compare values within a part only. Positions count from the first letter of the parent shown.

# Study 1
# Target: CCNA2, cyclin fold, Cln2 fusion (human)
# Technique: yeast growth competition, sequencing
# Matrix: yeast
# Setting: strong parent motif
# Baseline: not given
# Reading: higher = stronger binding
# Parent: ORC1 docking peptide (human); PRARKRLELGNLG
Variant,normalised enrichment score
PRARKRSELGNLG [L7S],0.737
PRARKRLELKNLG [G10K],2.93
PRARKRLNLGNLG [E8N],4.89
VRARKRLELGNLG [P1V],3.34
PRARKPLELGNLG [R6P],1.1
PRARKRLELSNLG [G10S],4.24
PRARKRLELGNFG [L12F],4.95
PNARKRLELGNLG [R2N],4.76
PRARKRLEQGNLG [L9Q],1.01

# Study 2
# Target: Sal-like protein 4, full length isoform A (SALL4, Homo sapiens, UniProt Q9UJQ4, residues 1-1053)
# Sequence of UniProt Q9UJQ4 (whole entry, looked up): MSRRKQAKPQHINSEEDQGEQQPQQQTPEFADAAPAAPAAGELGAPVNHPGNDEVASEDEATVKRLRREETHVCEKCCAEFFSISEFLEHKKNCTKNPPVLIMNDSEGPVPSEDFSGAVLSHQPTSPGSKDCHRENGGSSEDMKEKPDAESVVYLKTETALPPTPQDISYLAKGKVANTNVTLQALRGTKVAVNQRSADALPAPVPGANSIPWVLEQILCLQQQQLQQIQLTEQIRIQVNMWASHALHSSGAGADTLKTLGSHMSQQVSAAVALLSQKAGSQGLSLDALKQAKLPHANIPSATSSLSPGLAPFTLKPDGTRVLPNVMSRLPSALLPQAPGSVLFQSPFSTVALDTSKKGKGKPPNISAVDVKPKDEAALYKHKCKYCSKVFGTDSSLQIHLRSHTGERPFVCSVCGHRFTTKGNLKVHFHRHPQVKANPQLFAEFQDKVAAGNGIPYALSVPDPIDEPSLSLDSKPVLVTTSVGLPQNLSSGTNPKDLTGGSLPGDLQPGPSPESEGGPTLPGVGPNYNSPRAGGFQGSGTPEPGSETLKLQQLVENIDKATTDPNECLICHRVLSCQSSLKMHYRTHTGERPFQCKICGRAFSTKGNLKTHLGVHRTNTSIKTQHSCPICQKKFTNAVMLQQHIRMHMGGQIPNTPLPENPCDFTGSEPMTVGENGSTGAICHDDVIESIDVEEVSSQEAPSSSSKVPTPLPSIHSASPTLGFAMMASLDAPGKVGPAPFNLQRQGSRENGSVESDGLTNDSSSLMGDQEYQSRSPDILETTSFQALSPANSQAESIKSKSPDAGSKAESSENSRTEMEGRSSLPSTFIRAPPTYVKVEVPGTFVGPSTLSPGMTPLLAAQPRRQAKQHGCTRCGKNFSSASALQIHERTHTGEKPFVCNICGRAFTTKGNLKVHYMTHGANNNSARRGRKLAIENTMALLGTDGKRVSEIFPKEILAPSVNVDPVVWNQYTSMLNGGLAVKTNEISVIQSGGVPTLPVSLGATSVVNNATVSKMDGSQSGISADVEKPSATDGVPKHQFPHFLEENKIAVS
# Technique: universal PBM
# Molecule type: double-stranded DNA, one strand shown
# Matrix: in vitro
# Concentration: 600 nM
# Setting: 8-mer, flanks averaged, mean of replicates
# Reading: higher = stronger binding
Strand,E-score
CGTAAACG,-0.0765
CCCACTAA,-0.00197
GGGCTGGA,-0.331
ATCCCGGA,-0.169
CAATCAAA,0.0906
CAACGATG,0.0166
AAAGGGAG,-0.131
ACCCGCCT,-0.337

# Study 3
# Target: Transcriptional repressor CTCF (CTCF, Homo sapiens, UniProt P49711, residues 1-727, full length assumed)
# Technique: protein-binding microarray
# Molecule type: double-stranded DNA, one strand shown
# Matrix: in vitro
# Concentration: not given
# Setting: k-mer, scored over probes, only values ≥0.25
# Reading: higher = stronger binding
# Residues (chain): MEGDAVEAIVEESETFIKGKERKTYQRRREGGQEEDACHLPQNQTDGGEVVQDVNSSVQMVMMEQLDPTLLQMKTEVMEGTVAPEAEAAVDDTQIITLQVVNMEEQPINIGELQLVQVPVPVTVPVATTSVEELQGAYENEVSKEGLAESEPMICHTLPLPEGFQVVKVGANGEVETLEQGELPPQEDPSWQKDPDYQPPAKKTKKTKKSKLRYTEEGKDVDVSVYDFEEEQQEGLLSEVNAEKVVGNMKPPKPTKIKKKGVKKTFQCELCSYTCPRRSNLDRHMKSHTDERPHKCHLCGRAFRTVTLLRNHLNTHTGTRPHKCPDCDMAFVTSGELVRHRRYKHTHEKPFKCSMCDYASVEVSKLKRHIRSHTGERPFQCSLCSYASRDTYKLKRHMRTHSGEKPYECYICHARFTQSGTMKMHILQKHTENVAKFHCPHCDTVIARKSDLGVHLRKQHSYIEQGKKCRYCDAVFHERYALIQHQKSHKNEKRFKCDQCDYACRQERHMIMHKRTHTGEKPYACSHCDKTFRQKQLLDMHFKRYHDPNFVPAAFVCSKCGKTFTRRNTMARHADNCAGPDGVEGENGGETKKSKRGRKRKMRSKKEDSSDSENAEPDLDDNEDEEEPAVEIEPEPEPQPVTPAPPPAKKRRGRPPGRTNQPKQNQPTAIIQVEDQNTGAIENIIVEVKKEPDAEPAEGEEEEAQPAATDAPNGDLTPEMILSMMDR
Strand,E-score
GATAAAAC,0.273
AAGTTATA,0.252
AACCATTA,0.293
TCATTACA,0.277
AATTAATA,0.379
GTATATAC,0.325
ATTATATA,0.34
CGGCGCCC,0.263
ACGAATAA,0.26

# Other studies, line by line
Molecule,target,assay,test system,conditions,how to read,quantity,value
"PhoQ, residues 284 288 289 292 302 303 ALASRC","PhoP, residues 12 14 15 18 19 MHTVL (Escherichia coli, UniProt P23836)","Sort-seq, refers to: YFP reporter",E. coli,"PhoQ-PhoP variant library, together with: 10 µM Mg2+","baseline: high Mg2+ state, higher = stronger signaling",fold induction,9.97

# Some of these lines once more (study 3):
Strand,E-score
AAGTTATA,0.252
AACCATTA,0.293
